Measurements from different studies.
Numbered parts are unrelated; each lists some results of a single study.
Sequence of UniProt Q16581 (whole entry, looked up): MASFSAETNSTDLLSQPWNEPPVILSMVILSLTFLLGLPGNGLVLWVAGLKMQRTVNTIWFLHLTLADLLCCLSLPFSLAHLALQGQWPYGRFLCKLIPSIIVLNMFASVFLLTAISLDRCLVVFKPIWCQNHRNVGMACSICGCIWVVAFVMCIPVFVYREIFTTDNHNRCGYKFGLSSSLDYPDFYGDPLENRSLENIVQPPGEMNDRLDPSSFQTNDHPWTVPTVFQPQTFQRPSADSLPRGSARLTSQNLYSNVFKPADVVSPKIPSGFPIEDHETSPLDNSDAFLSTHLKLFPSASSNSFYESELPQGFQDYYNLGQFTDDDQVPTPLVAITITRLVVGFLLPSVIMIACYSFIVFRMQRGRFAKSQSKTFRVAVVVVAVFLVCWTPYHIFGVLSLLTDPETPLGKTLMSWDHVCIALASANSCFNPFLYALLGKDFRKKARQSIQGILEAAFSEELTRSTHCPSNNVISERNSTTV
Sequence of UniProt P30874 (whole entry, looked up): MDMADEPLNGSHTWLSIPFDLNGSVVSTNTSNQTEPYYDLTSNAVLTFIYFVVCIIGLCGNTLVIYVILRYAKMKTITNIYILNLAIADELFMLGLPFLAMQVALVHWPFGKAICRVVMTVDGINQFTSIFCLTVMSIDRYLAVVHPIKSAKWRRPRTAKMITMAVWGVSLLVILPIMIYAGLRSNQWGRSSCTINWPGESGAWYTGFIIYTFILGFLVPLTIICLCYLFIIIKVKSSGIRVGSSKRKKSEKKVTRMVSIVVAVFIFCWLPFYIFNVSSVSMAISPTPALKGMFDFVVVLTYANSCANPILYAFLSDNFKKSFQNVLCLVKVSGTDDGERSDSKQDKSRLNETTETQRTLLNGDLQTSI
Sequence of UniProt Q02643 (whole entry, looked up): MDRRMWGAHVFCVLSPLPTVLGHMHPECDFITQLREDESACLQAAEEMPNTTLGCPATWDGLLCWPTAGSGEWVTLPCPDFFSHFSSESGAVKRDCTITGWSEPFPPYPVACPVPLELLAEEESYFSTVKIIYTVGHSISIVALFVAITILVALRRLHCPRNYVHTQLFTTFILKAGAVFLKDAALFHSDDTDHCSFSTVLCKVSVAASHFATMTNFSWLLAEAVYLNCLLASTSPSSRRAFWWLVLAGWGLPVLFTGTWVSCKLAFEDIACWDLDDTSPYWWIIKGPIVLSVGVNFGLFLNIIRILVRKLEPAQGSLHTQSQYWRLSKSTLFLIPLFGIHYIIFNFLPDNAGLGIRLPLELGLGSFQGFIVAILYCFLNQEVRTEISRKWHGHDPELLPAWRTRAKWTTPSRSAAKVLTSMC
Sequence of UniProt Q9BXC0 (whole entry, looked up): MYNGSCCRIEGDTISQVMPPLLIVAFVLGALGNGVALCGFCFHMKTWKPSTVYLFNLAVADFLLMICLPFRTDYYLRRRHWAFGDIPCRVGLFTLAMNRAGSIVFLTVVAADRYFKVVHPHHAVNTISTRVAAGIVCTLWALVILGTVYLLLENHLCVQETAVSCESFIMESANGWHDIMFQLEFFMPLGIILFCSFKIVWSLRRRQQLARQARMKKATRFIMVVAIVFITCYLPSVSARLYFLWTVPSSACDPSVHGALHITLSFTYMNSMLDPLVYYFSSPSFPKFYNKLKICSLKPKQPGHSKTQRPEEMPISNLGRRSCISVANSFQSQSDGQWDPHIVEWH
Sequence of UniProt P32249 (whole entry, looked up): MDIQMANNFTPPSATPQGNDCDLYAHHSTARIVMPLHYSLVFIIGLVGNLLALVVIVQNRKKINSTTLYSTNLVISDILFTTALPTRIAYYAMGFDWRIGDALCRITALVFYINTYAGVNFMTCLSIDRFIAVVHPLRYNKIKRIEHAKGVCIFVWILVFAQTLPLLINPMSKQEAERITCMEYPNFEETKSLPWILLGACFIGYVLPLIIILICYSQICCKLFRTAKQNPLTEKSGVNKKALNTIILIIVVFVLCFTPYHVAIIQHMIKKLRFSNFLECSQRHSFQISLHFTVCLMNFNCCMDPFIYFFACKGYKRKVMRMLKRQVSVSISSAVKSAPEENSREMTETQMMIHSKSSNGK
Sequence of UniProt Q15722 (whole entry, looked up): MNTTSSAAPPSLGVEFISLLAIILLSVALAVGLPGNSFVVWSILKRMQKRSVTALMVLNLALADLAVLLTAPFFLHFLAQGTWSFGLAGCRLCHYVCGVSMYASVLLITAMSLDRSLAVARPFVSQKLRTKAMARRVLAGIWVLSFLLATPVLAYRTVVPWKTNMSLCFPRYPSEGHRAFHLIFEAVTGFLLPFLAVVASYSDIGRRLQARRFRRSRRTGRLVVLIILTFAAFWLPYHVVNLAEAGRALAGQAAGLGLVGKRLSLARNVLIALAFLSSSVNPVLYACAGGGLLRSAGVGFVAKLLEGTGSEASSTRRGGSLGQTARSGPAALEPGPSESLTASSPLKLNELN
Sequence of UniProt P29275 (whole entry, looked up): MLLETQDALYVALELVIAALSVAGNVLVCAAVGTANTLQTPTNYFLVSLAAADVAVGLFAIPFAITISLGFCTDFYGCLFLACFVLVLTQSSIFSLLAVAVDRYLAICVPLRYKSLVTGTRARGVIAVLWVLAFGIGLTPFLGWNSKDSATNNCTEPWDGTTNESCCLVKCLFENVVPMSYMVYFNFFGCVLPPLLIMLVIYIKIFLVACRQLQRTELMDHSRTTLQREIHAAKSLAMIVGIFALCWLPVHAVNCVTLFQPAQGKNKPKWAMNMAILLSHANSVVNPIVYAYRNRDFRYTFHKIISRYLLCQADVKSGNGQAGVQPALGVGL

Study 1
Target: Receptor tyrosine-protein kinase erbB-2 (ERBB2, Homo sapiens, UniProt P04626)
Effect on: enzyme activity
Action: inhibitor
Concentration: 0.5 µM
Baseline: control
SMILES | remaining activity
O=c1cc(N2CCOCC2)oc2c(-c3ccccc3)cccc12 | 104%
CN1CCN(c2ccc3nc(-c4c(N)c5c(F)cccc5[nH]c4=O)[nH]c3c2)CC1 | 106%
CCCNC(=O)Nc1ccc(Oc2ncnc3cc(OC)c(OC)cc23)cc1Cl | 116%
COc1ccc2c(c1)c(C1=C(c3c[nH]c4ccccc34)C(=O)NC1=O)cn2CCCN(C)C | 115%
Oc1cccc(-c2nc(N3CCOCC3)c3oc4ncccc4c3n2)c1 | 105%
O=C1Cc2c([nH]c3ccc(Br)cc23)-c2ccccc2N1 | 103%
N#Cc1cnc2cnc(NCc3cccnc3)cc2c1Nc1ccc(F)c(Cl)c1 | 91.7%
O=Nc1c(-c2c(O)[nH]c3cc(Br)ccc23)[nH]c2ccccc12 | 102%
O=C1Nc2ccc(Br)cc2/C1=C/c1cc2c([nH]1)CCCC2 | 115%
O=C1NC(=O)c2c1c1c3ccccc3[nH]c1n1cncc21 | 109%
O=C1Nc2ccccc2/C1=C\c1c(Cl)[nH]c2ccccc12 | 97.3%
O=C1NC(=O)c2c1c1c3ccccc3[nH]c1c1[nH]c3cc(Br)ccc3c21 | 101%
COc1cccc(-c2cc(=O)c3ccccc3o2)c1N | 106%
O=C(c1cc2cc(O)ccc2[nH]1)c1cc2cc(O)ccc2[nH]1 | 113%
c1ccc2c(-c3ccncc3)c[nH]c2c1 | 95.6%
CN(C)S(=O)(=O)c1ccc2c(c1)/C(=C/c1cc3c([nH]1)CCCC3)C(=O)N2 | 101%
Cc1cc(Nc2cc(N3CCN(C)CC3)nc(Sc3ccc(NC(=O)C4CC4)cc3)n2)[nH]n1 | 102%
c1ccc(-c2n[nH]c3c2oc2ccccc23)cc1 | 104%
Cc1ccc(S(=O)(=O)/C=C/C#N)cc1 | 94.2%
CCCCc1c(-c2ccc(OC)cc2)[nH]c2nccnc12 | 96.4%

Study 2
Target: Calcium/calmodulin-dependent protein kinase type II subunit alpha (CAMK2A, Homo sapiens, UniProt Q9UQM7)
Sequence of UniProt Q9UQM7 (whole entry, looked up): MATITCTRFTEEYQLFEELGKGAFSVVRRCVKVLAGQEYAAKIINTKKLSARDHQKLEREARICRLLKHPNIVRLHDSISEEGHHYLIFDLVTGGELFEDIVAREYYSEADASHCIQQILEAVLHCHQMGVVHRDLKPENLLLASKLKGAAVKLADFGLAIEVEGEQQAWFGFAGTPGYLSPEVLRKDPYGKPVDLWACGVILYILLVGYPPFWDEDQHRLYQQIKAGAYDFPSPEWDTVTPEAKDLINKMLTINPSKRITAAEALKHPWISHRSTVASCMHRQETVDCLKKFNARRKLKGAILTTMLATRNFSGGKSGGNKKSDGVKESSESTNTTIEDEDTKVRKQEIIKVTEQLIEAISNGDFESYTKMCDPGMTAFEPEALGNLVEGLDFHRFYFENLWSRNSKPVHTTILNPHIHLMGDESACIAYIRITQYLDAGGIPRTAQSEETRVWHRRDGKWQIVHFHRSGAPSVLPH
Effect on: enzyme activity
Action: inhibitor
Concentration: 10 µM
Compound | inhibition [%]
CC(=O)/C=C/c1ccc(O)c(O)c1 | -42
O=C(O)CCCCCCCCCCCCC(=O)O | -1
C=C(C)[C@@H]1CCC2=CC(=O)C[C@@H](C)[C@]2(C)C1 | -12
C=C[C@H]1[C@H](O[C@@H]2O[C@H](CO)[C@@H](O)[C@H](O)[C@H]2O)OC=C(C(=O)OC)[C@H]1CC(=O)O | 5
c1ccc(CNc2ncnc3[nH]cnc23)cc1 | -14
N[C@@H](Cn1ccc(=O)c(O)c1)C(=O)O | 2
CC(=O)O[C@]12CCC(C)=CC[C@]13CC[C@H]2[C@@](C)(/C=C/C=C(\C)C(=O)O)OC3=O | -4
COc1cc([C@H]2OC[C@H]3[C@@H]2CO[C@H]3c2ccc(OC)c(OC)c2)ccc1O | -70
Cc1oc(=O)oc1COC(=O)C1=C([C@H]2CCCO2)S[C@@H]2[C@@H]([C@@H](C)O)C(=O)N12 | -12
C=C1CC/C=C(\C)CC[C@@H]2[C@@H]1CC2(C)C | 1
CC(C)=CCc1cc(-c2coc3cc(O)ccc3c2=O)ccc1O | -34
CC(C)(CO)c1cc2cc(NC(=O)C3(c4ccc5c(c4)OC(F)(F)O5)CC3)c(F)cc2n1C[C@@H](O)CO | 6
CCCC(=O)Nc1ccc(OCC(O)CNC(C)C)c(C(C)=O)c1 (stereo not drawn) | 1
O=C(O)/C=C/C(=O)O | 5
CC(C)CN(C[C@@H](O)[C@H](Cc1ccccc1)NC(=O)O[C@H]1CO[C@H]2OCC[C@H]21)S(=O)(=O)c1ccc(N)cc1 | 6
C[N+](C)(C)CC(O)CC(=O)O (racemic) | -8
CO[C@@H]1[C@@H](OC(N)=O)[C@@H](O)[C@H](Oc2ccc3c(O)c(NC(=O)c4ccc(O)c(CC=C(C)C)c4)c(=O)oc3c2C)OC1(C)C | -5
CCCCCCCCCCCC(=O)OC | -10
C=C1CC[C@@H]2[C@](C)(COC(=O)CCC(=O)O)[C@H](OC(=O)CCC(=O)O)CC[C@@]2(C)[C@@H]1/C=C/C1=CCOC1=O | -1
CC(/C=C/C=C(\C)C(=O)O[C@@H]1O[C@H](CO[C@@H]2O[C@H](CO)[C@@H](O)[C@H](O)[C@H]2O)[C@@H](O)[C@H](O)[C@H]1O)=C\C=C\C=C(C)\C=C\C=C(/C)C(=O)O[C@@H]1O[C@H](CO[C@@H]2O[C@H](CO)[C@@H](O)[C@H](O)[C@H]2O)[C@@H](O)[C@H](O)[C@H]1O | 4
C[C@H](O)CO | -16

Study 3
Target: Muscarinic acetylcholine receptor M5 (CHRM5, Homo sapiens, UniProt P08912)
Sequence of UniProt P08912 (whole entry, looked up): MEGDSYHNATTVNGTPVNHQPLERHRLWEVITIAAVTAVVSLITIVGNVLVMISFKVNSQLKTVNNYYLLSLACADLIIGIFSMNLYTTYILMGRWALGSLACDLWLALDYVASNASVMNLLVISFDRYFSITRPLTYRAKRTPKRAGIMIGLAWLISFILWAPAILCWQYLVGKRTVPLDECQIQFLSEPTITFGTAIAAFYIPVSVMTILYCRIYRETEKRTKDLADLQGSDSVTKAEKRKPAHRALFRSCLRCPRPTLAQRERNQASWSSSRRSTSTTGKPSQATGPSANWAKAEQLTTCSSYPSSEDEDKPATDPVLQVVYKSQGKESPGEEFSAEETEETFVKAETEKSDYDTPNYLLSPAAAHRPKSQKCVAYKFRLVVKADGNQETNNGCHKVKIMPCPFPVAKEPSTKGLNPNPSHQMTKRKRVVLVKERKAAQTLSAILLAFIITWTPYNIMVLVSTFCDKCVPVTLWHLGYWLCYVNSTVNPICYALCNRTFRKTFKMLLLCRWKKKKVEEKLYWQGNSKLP
Effect on: ligand displacement
Concentration: 10 µM
Compound | inhibition [%]
CN1CCN(c2cnc3c(C4CCN(C(=O)c5ccc(OC(F)(F)F)cc5N)CC4)ncnc3c2)CC1 | 2.02
O=C1NC(c2ccccn2)Sc2ccccc21 (stereo not drawn) | 0.557
CC(=O)Nc1ncc(CN2CCC[C@H](Cc3cc(C)nc(C)c3)C2)s1 | -10.8
NS(=O)(=O)c1cc(NC(=O)Cc2ccccc2)ccc1Oc1cccc(Cl)c1 | 16.7
C[C@H](c1ccnc(Nc2nc3ccc(-c4cc(N(C)C)ncn4)cc3[nH]2)c1)N1CCN(C(=O)CC(F)(F)F)CC1 | 18.7
Nc1cnc(N2CCc3cc(S(=O)(=O)Nc4c(F)cc(Cl)cc4F)cc(N4CCCC4=O)c32)nc1 | 1.45
Cc1ccccc1Oc1cc(-n2c(=O)cc(C(F)(F)F)[nH]c2=O)c2ccccc2c1Cl | -5.66
O=C(N[C@H]1CCCCC/C=C\C2C[C@@]2(C(=O)O)NC(=O)[C@@H]2C[C@@H](Oc3ccncc3)CN2C1=O)OC1CCCC1 (stereo partly drawn) | -11.5
Nc1nc(NCc2ccccc2)nc(-c2ccccc2CO)n1 | -25.8
COc1cc(C(=O)O)ncc1C#Cc1ccccc1NS(=O)(=O)c1cccc2c(N(C)C)ccnc12 | -3.36
CS(=O)(=O)N1CCCC(NC(=O)[C@H](CCC2CCCCC2)NC(=O)c2ccc(CNC(=O)c3cnc4ccccn34)cc2)C1 (stereo partly drawn) | -25.5
Nc1nc(NCc2ccccc2)nc(-c2cccc(CO)c2)n1 | 8.68
CN1CCN(C(=O)C(C)(C)c2ccc(C(=O)Nc3cn4cc(-c5cc(C(C)(C)C)cc(C(C)(C)C)c5)ccc4n3)cc2)CC1 | 30.8
CCc1ccccc1C(=O)Nc1n[nH]c2c(C)c(F)c(C3C(C#N)=C(C)N(C)C(C)=C3C#N)cc12 | 17.9
Cc1ccc(-c2cnc([C@@]3(O)CC[C@H](C(=O)O)C(C)(C)C3)s2)cc1Nc1cccc(C(F)(F)F)n1 | -4.28
O=C(NCCCC1CCCCC1)c1ccc(CNC(=O)c2cnn(-c3ccccc3)c2C(F)(F)F)cc1 | -4.46
CC(=O)N1CCC(c2ccc(C(=O)NC3=NCCN3)cc2C(F)(F)F)CC1 | 14.9
N#CC1(c2ccccn2)CCN(Cc2cc(C(=O)N3CCCC3)c(=O)n3ccccc23)CC1 | 0.56
c1ccc(N2CCN(Cc3nc4ccccc4[nH]3)CC2)nc1 | -9.66
CN(C)CC#Cc1ccc(OCCCc2sc(N3CCc4cccc(C(=O)Nc5nc6ccccc6s5)c4C3)nc2C(=O)O)c(F)c1 | 12.6
Cc1noc([C@H]2C[C@@H](c3ccc(C(F)(F)F)cc3)CN(C(=O)N3CCS(=O)(=O)C3)C2)n1 | -1.71
COc1cc(N[C@@H]2CCCC[C@]2(O)C(F)(F)F)ccc1F | -5.5
CC1=C(C#N)C(c2ccc3[nH]nc(C)c3c2)C(C#N)=C(C)N1 | 5.48
O=C(Nc1ccc(Oc2ccc(F)cc2)cc1)N1CCc2ncccc2[C@H]1c1ccc(F)cc1 | -1.7
C[C@H](c1ccc(F)cc1)N(Cc1cccc(C(=O)O)c1)C(=O)c1cnc2ccccc2c1 | -10.7

Study 4
Compound: N=C(N)NC(=O)c1cnn(-c2cccc3ncccc23)c1C1CC1
Effect on: β-arrestin recruitment
Action: agonist
Method: PRESTO-Tango
Concentration: 10 µM
Baseline: untreated
target | fold over basal
Probable G-protein coupled receptor 156 (GPR156, Homo sapiens, UniProt Q8NFN8) | 1.01
Histamine H1 receptor (HRH1, Homo sapiens, UniProt P35367) | 1.05 fold
C-C chemokine receptor-like 2 (Homo sapiens, UniProt O00421) | 1.17
Leukotriene B4 receptor 1 (LTB4R, Homo sapiens, UniProt Q15722) | 0.91
G-protein coupled receptor 183 (GPR183, Homo sapiens, UniProt P32249) | 1.21
Adhesion G protein-coupled receptor L4 (ADGRL4, Homo sapiens, UniProt Q9HBW9) | 1.25
P2Y purinoceptor 2 (P2RY2, Homo sapiens, UniProt P41231) | 0.86
G-protein coupled receptor 84 (GPR84, Homo sapiens, UniProt Q9NQS5) | 1.38
N-arachidonyl glycine receptor (GPR18, Homo sapiens, UniProt Q14330) | 0.86
Probable G-protein coupled receptor 63 (GPR63, Homo sapiens, UniProt Q9BZJ6) | 0.67
5-hydroxytryptamine receptor 2C (HTR2C, Homo sapiens, UniProt P28335, I156V/I160V) | 0.55
Growth hormone-releasing hormone receptor (GHRHR, Homo sapiens, UniProt Q02643) | 0.72 fold
C3a anaphylatoxin chemotactic receptor (C3AR1, Homo sapiens, UniProt Q16581) | 1.05
Proto-oncogene Mas (Homo sapiens, UniProt P04201) | 1.03
Adenosine receptor A2b (ADORA2B, Homo sapiens, UniProt P29275) | 0.69
G-protein coupled receptor 68 (GPR68, Homo sapiens, UniProt Q15743) | 0.83
Mu-type opioid receptor (OPRM1, Homo sapiens, UniProt P35372) | 1.13
Hydroxycarboxylic acid receptor 1 (HCAR1, Homo sapiens, UniProt Q9BXC0) | 0.72 fold
G-protein coupled receptor 161 (GPR161, Homo sapiens, UniProt Q8N6U8) | 1.01
Adenosine receptor A2a (ADORA2A, Homo sapiens, UniProt P29274) | 1.33
5-hydroxytryptamine receptor 7 (HTR7, Homo sapiens, UniProt P34969) | 1.14
5-hydroxytryptamine receptor 2B (HTR2B, Homo sapiens, UniProt P41595) | 1.12
GPR37 (Homo sapiens, UniProt O15354) | 1.04
Somatostatin receptor type 2 (SSTR2, Homo sapiens, UniProt P30874) | 0.83
